Published values of several laboratories.
Every numbered part comes from another study and shows a few of its results, in no order.
Chain of UniProt P28223 (whole entry, looked up): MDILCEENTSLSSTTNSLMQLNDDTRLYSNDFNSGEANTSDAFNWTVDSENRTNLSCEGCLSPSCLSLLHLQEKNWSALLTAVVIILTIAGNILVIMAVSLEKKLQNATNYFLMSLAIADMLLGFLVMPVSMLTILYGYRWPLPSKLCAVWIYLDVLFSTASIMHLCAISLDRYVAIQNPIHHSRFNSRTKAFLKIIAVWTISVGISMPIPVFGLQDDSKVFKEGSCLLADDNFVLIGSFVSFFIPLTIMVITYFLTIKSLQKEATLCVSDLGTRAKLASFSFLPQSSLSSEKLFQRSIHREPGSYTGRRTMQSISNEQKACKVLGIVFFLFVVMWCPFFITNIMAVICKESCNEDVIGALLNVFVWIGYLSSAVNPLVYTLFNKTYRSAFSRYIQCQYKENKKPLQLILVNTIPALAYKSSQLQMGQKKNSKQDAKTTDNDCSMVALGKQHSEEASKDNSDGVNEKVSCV
Chain of UniProt Q9UPZ9 (whole entry, looked up): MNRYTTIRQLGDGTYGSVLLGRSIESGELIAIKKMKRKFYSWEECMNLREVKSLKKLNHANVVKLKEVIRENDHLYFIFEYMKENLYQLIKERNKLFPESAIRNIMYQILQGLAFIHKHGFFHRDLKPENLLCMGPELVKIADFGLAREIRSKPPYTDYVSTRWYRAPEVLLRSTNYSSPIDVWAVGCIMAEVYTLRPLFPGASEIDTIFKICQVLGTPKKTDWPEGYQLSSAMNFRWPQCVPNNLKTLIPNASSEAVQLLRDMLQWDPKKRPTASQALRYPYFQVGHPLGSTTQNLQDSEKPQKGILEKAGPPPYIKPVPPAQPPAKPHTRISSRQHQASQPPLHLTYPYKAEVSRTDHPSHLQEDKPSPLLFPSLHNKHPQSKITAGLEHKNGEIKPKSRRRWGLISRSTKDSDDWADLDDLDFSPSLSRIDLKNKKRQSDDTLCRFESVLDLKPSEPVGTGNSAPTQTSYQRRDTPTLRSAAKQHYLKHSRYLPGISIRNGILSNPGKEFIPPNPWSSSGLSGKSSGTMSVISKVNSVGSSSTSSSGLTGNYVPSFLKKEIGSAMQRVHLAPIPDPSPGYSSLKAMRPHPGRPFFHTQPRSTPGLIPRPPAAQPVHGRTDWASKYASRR
Chain of UniProt P25105 (whole entry, looked up): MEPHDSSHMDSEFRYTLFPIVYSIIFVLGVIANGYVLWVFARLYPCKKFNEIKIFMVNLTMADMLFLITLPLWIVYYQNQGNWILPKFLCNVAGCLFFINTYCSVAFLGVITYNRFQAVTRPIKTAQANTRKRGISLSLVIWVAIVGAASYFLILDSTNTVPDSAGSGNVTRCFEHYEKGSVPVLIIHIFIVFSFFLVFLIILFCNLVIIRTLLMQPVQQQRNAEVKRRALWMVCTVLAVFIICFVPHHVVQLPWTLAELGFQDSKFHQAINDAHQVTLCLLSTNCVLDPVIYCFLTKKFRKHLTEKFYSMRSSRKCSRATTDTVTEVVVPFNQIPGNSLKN
Chain of UniProt Q86SQ4 (whole entry, looked up): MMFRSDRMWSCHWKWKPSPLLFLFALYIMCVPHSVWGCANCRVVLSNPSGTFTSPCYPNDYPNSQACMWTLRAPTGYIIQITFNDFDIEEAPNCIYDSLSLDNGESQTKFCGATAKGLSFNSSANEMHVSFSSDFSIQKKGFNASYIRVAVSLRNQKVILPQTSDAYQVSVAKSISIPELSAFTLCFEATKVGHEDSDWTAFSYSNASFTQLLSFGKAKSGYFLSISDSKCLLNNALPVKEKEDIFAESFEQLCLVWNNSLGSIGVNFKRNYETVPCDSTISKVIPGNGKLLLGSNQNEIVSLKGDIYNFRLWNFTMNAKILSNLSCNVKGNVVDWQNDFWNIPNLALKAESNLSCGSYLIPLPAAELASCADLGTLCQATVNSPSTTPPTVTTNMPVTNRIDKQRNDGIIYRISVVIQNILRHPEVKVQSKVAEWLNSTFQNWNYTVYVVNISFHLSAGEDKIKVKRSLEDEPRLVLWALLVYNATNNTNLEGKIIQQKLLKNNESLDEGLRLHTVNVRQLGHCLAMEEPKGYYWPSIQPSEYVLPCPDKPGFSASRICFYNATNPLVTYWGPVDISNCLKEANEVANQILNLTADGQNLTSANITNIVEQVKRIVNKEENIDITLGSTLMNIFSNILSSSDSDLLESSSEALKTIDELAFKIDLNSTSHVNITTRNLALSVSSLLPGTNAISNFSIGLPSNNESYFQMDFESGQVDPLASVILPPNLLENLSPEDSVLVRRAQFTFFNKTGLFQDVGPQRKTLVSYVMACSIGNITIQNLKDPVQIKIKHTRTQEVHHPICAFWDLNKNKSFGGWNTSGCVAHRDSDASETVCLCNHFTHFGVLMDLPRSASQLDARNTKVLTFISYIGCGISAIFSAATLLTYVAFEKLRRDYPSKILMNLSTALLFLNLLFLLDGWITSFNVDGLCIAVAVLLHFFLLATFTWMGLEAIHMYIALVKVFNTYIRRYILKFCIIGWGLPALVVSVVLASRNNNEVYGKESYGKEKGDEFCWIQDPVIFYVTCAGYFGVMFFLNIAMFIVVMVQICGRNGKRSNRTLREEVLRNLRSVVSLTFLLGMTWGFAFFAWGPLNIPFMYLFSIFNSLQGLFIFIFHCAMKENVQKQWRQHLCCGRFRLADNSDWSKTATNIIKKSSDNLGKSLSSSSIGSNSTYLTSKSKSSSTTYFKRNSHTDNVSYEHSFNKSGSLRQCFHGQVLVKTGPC
Chain of UniProt P32246 (whole entry, looked up): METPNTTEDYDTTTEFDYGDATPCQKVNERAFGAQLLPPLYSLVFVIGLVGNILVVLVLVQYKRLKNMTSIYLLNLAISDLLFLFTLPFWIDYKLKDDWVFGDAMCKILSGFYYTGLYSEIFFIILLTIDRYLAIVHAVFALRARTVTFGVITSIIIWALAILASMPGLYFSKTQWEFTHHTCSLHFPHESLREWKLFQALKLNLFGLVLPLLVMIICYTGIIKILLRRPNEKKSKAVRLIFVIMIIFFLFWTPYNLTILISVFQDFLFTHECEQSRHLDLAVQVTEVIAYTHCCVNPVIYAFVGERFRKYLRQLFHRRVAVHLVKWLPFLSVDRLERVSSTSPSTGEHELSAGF
Chain of UniProt Q8WXR4 (whole entry, looked up): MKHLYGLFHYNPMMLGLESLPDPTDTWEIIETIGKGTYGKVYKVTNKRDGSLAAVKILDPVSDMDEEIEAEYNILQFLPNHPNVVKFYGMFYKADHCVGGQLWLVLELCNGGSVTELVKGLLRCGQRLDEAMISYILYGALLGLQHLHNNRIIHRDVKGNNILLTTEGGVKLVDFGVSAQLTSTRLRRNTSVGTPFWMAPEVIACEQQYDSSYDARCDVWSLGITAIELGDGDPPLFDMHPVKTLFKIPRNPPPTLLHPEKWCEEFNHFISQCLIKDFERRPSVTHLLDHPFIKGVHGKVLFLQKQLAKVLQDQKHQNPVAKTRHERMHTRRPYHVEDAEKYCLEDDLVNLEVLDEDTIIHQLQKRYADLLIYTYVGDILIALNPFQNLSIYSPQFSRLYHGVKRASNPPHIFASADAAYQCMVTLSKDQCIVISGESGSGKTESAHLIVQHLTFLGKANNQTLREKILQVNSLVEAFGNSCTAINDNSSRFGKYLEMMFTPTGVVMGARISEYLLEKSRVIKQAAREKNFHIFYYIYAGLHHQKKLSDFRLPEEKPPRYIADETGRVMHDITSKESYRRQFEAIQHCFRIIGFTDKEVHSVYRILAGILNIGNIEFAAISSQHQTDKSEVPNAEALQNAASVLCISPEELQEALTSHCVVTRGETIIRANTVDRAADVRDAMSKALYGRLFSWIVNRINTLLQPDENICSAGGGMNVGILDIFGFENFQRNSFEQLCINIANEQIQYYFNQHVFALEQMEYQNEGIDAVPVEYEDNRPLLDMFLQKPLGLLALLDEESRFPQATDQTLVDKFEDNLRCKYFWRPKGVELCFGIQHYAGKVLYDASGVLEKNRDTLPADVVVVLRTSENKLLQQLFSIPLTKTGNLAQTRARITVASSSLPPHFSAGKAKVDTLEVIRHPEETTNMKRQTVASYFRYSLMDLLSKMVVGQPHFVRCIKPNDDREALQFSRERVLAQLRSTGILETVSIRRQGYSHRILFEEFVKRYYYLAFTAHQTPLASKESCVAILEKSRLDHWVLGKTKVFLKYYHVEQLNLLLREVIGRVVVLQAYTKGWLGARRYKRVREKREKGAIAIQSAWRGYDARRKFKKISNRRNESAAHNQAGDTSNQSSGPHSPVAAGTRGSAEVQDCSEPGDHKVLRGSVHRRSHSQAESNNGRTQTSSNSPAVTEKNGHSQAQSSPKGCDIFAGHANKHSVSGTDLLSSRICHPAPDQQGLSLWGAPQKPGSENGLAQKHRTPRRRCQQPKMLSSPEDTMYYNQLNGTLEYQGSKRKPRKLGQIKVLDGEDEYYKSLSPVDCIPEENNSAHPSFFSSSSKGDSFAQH

Set 1 — read-out: enzyme activity; action: inhibitor; tested at: 10 µM
Target: Calcium/calmodulin-dependent protein kinase type II subunit alpha (CAMK2A, Homo sapiens, UniProt Q9UQM7)
Chain of UniProt Q9UQM7 (whole entry, looked up): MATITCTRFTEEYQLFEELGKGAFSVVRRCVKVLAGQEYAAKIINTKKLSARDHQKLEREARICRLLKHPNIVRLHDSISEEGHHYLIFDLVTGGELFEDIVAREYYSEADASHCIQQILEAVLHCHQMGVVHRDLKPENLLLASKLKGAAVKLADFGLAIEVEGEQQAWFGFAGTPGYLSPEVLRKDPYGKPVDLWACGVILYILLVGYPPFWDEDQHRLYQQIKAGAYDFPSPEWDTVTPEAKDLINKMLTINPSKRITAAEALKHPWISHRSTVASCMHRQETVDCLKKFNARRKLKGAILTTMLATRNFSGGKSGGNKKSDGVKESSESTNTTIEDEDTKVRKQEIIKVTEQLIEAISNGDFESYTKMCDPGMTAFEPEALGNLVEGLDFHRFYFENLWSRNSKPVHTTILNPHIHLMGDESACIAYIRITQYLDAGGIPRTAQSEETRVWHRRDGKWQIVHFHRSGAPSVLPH
SMILES	inhibition [%]
C/C=C/c1cc(OC)c2c(c1)[C@@H](C)[C@H](c1ccc3c(c1)OCO3)O2	14
NC[C@@H]1O[C@H](O[C@H]2[C@@H](O)[C@H](O[C@@H]3[C@@H](O)[C@H](N)C[C@H](N)[C@H]3O[C@H]3O[C@H](CO)[C@@H](O)[C@H](O)[C@H]3N)O[C@@H]2CO)[C@H](N)[C@@H](O)[C@@H]1O	8
O=C1C[C@@H](c2ccc(O)c(O)c2)Oc2c1ccc(O[C@@H]1O[C@H](CO)[C@@H](O)[C@H](O)[C@H]1O)c2O	11
C=C1/C(=C\C=C2/CCC[C@]3(C)[C@@H]([C@H](C)CCCC(C)(C)O)CC[C@@H]23)C[C@@H](O)[C@@H](OCCCO)[C@@H]1O	-2
O=C1OCc2ccccc21	-12
COc1ccc([C@@H]2CC(=O)c3c(O)cc(O[C@@H]4O[C@H](CO[C@@H]5O[C@@H](C)[C@H](O)[C@@H](O)[C@H]5O)[C@@H](O)[C@H](O)[C@H]4O)cc3O2)cc1OC	-11
CC(C)=CCC[C@@](C)(O)[C@H]1CC[C@]2(C)[C@@H]1[C@H](O)C[C@@H]1[C@@]3(C)CC[C@H](O)C(C)(C)[C@@H]3[C@@H](O[C@@H]3O[C@H](CO)[C@@H](O)[C@H](O)[C@H]3O[C@@H]3O[C@@H](C)[C@H](O)[C@@H](O)[C@H]3O)C[C@]12C	3
C=C[C@H]1[C@H](O[C@@H]2O[C@H](CO)[C@@H](O)[C@H](O)[C@H]2O)OC=C2C(=O)OCC[C@]21O	-20
CCOC(=O)[C@H](CCc1ccccc1)N[C@H]1CCCN2CCC[C@@H](C(=O)O)N2C1=O	-5

Set 2 — method: competition with immobilised ligand; tested at: 1 µM
SMILES: COc1ccc2c(O[C@@H]3C[C@H]4C(=O)N[C@]5(C(=O)O)CC5/C=C\CCCCC[C@H](NC(=O)OC5CCCC5)C(=O)N4C3)cc(-c3csc(NC(=O)C(C)C)n3)nc2c1C (stereo partly shown)
target	read-out	remaining binding
Cyclin-G-associated kinase (GAK, Homo sapiens, UniProt O14976)	cell-free assay	95%
Ephrin type-A receptor 1 (EPHA1, Homo sapiens, UniProt P21709)	cell-free assay	88%
Ephrin type-B receptor 2 (EPHB2, Homo sapiens, UniProt P29323)	cell-free assay	98%
Receptor-type tyrosine-protein kinase FLT3 (FLT3, Homo sapiens, UniProt P36888)	cell-free assay	88%
Myosin-IIIb (MYO3B, Homo sapiens, UniProt Q8WXR4)	binding	68%
Phosphatidylinositol 3-kinase catalytic subunit type 3 (PIK3C3, Homo sapiens, UniProt Q8NEB9)	cell-free assay	100%
Mast/stem cell growth factor receptor Kit (KIT, Homo sapiens, UniProt P10721, D816H)	cell-free assay	86%
Cyclin-dependent kinase 4, with cyclin D3 (CDK4, Homo sapiens, UniProt P11802)	cell-free assay	88%
Receptor-type tyrosine-protein kinase FLT3 (FLT3, Homo sapiens, UniProt P36888, D835V)	cell-free assay	79%
STE20/SPS1-related proline-alanine-rich protein kinase (STK39, Homo sapiens, UniProt Q9UEW8)	cell-free assay	100%
Proto-oncogene tyrosine-protein kinase receptor Ret (RET, Homo sapiens, UniProt P07949, M918T)	cell-free assay	97%
cAMP-dependent protein kinase catalytic subunit PRKX (PRKX, Homo sapiens, UniProt P51817)	cell-free assay	86%
Tyrosine-protein kinase ABL2 (ABL2, Homo sapiens, UniProt P42684)	cell-free assay	98%
Serine/threonine-protein kinase ICK (CILK1, Homo sapiens, UniProt Q9UPZ9)	cell-free assay	68%
Cyclin-dependent kinase 15 (CDK15, Homo sapiens, UniProt Q96Q40)	cell-free assay	100%

Set 3 — action: inhibitor; tested at: 10 µM; baseline: control
Target: Diamine acetyltransferase 1 (Homo sapiens, UniProt P21673)
Construct (P21673 1-171): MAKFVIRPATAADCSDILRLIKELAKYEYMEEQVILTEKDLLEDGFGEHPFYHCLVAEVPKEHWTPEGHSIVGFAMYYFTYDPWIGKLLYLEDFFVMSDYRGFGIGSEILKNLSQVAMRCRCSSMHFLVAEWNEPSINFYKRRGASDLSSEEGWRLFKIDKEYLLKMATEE
Structure (SMILES)	remaining activity
COc1c(O)cc2oc3cc(O)c(CC=C(C)C)c(O)c3c(=O)c2c1CC=C(C)C	104%
CC(=O)O[C@H]1CC[C@]2(C)[C@H]3CC=C4[C@@H]5CC(C)(C)CC[C@]5(C)CC[C@@]4(C)[C@]3(C)CC[C@H]2C1(C)C	104%
CCCCCCO	91%
O=C1C[C@@H](c2ccc(O[C@@H]3O[C@H](CO)[C@@H](O)[C@H](O)[C@H]3O[C@@H]3OC[C@](O)(CO)[C@H]3O)cc2)Oc2cc(O)ccc21	88.5%
COc1cc(O)c2c(c1)CCc1cc(O)ccc1-2	85.4%
C/C=C/C=C/C=C/CC/C=C/C(=O)NCC(C)(C)O	112%
NC(=O)NC1NC(=O)NC1=O (stereo not shown)	97.2%
O=C(O)/C=C/C(=O)O	95%
COc1c(O[C@@H]2O[C@H](CO)[C@@H](O)[C@H](O)[C@H]2O)cc2occ(-c3ccc(O)cc3)c(=O)c2c1O	81.3%
OC1c2ccccc2-c2ccccc21	89.4%
Cc1cc(C(C)(C)C)c(O)c(C(C)(C)C)c1	105%
C=C1CCC[C@]2(C)C[C@]3(O)OC(=O)C(C)=C3C[C@@H]12	85.4%
COc1cc(OC)c2ccc(=O)oc2c1	81.8%

Set 4 — SMILES: CC(C)CN(C)c1nc(N)c(C(=O)N=C(N)N)nc1Cl; read-out: β-arrestin recruitment; action: agonist; method: PRESTO-Tango; tested at: 10 µM; baseline: untreated
target	fold over basal
N-formyl peptide receptor 3 (Homo sapiens, UniProt P25089)	0.48 fold
D(1A) dopamine receptor (DRD1, Homo sapiens, UniProt P21728)	0.53
GPR101 (Homo sapiens, UniProt Q96P66)	1.05
D(2) dopamine receptor (DRD2, Homo sapiens, UniProt P14416)	0.56
C-C chemokine receptor type 1 (CCR1, Homo sapiens, UniProt P32246)	1.07
Calcitonin receptor, isoform b (CALCR, Homo sapiens, UniProt P30988)	0.81
5-hydroxytryptamine receptor 2A (HTR2A, Homo sapiens, UniProt P28223)	0.26
Muscarinic acetylcholine receptor M2 (CHRM2, Homo sapiens, UniProt P08172)	0.99
Platelet-activating factor receptor (PTAFR, Homo sapiens, UniProt P25105)	1.43
Vasoactive intestinal polypeptide receptor 1 (VIPR1, Homo sapiens, UniProt P32241)	0.52 fold
ADGRG6 (Homo sapiens, UniProt Q86SQ4)	1.07
Apelin receptor (APLNR, Homo sapiens, UniProt P35414)	0.98
N-formyl peptide receptor 2 (FPR2, Homo sapiens, UniProt P25090)	0.71 fold
Neuropeptides B/W receptor type 1 (NPBWR1, Homo sapiens, UniProt P48145)	0.96
Probable G-protein coupled receptor 25 (GPR25, Homo sapiens, UniProt O00155)	0.94

A few entries again (set 2):
target	read-out	remaining binding
Cyclin-G-associated kinase (GAK, Homo sapiens, UniProt O14976)	cell-free assay	95%
Ephrin type-A receptor 1 (EPHA1, Homo sapiens, UniProt P21709)	cell-free assay	88%
Ephrin type-B receptor 2 (EPHB2, Homo sapiens, UniProt P29323)	cell-free assay	98%
Receptor-type tyrosine-protein kinase FLT3 (FLT3, Homo sapiens, UniProt P36888)	cell-free assay	88%
Myosin-IIIb (MYO3B, Homo sapiens, UniProt Q8WXR4)	binding	68%
Phosphatidylinositol 3-kinase catalytic subunit type 3 (PIK3C3, Homo sapiens, UniProt Q8NEB9)	cell-free assay	100%
